Published values pooled from the literature.
Compare with care: the assays were run in different laboratories. Values joined by “and” are separate records of one study, mostly repeats; a detail may differ. Numbers after ± are the reported error. In brackets after ≈: the same amount, converted by molar mass.

| Compound | cell line | test | test system | conditions | how to read | endpoint | value |
| --- | --- | --- | --- | --- | --- | --- | --- |
| O=C(C[Se]C(=O)c1ccc2ccccc2c1)Nc1cccc(C(F)(F)F)c1 | NCI60 CNS cancer panel | five-dose screen |  |  |  | GI50 | 1780 nM |
| Cc1ccc(-n2cc(CSc3nc4ccccc4n3Cc3cn(-c4ccc(C)cc4)nn3)nn2)cc1 | HEK293 | MTT |  | 31.3 ppm |  | cytotoxicity | 51.9% |
| CN(C)c1ccc(-n2cc(COC(=O)[C@]3(C)C=C(C(=O)OC(C)(C)C)C(=O)CC3)nn2)cc1 | HeLa | quantitative western blot |  | concentration not given, 15 (unit not given), with: EGF |  | pRSK/tubulin ratio | 0.177 |
| COC(=O)C1=C(C)Oc2ccc(Br)cc2C1C(C(C)=O)C(=O)OC (stereo not drawn) | 3T3-L1 | cell growth or viability, MTT |  | 72 h |  | IC20 | 111 µg/mL (≈ 279 µM) |
| C=C1C(=O)OC2C1CCC(C)(O)C13C=CC(C)(C21)C1(C3)C(=O)OC2C3C(C)=CCC3C(C)(O)CCC21 (stereo not drawn) | AML12 mouse hepatocytes | lipid accumulation, Nile Red staining |  | maximum safe concentration, 24 h, with: palmitic acid/oleic acid |  | maximum inhibition | 53.2 ± 3.45% |
| O=CCNCCOn1c(=O)n(OCCNCCO)c(=O)n(OCCNCCOn2c(=O)n(OCCNCCO)c(=O)n(OCCNCCO)c2=O)c1=O | A549 | cell growth or viability, MTT |  | 100 µg/mL, 24 h |  | viability | 38.3% |
| CN(C)Cc1nc(Nc2ccc(-c3cnc4cc(F)ccn34)c3c2C(=O)NC3)ccc1C1CCOC1 (stereo not drawn) | human CD4 T cells | cytokine induction, item: IL-2 |  | with: anti-CD3/CD28 |  | EC50 | 12 nM |
| COc1cccc(O)c1C(=O)/C=C/c1ccc2cc(N3CCCC3)ccc2c1 | HK-2 | Nrf2 target genes, item: HO-1, NQO1, GCLC, GCLM |  | concentration not given |  | mRNA level | increased |
| CCOc1cncc(-c2ccc(NC(=O)C3(c4ccnc(NS(=O)(=O)C5CC5)n4)CCOCC3)nc2)n1 | colon cancer | cell viability, CellTiter-Glo | DMSO 0.1% | 72 h, line code 269 |  | IC50 | 111 nM |
| Cc1ncsc1-c1ccc(C(C)NC(=O)C2CC(O)CN2C(=O)C(NC(=O)CCCCCCCCCCN2CCCC(Nc3ncc(Cl)c(Nc4ccccc4S(=O)(=O)C(C)C)n3)C2)C(C)(C)C)cc1 (stereo not drawn) | 22Rv1 | RNA-seq, item: PLPP6 mRNA |  | concentration not given | reference: DMSO | log2 fold change | -1.9 |
| C[C@@H](Nc1nc2c(cnn2C(C)(C)C)c(=O)n1Cc1cccc(F)c1)c1ccc(Cl)cc1 | BV-2 | item: Il-1β, Il-6, Tnf-α |  | concentration not given, with: LPS |  | mRNA level | decreased |
| CCCC[C@H](N)C(=O)N[C@H]1CSCc2ccc(cc2)-c2ccc(cc2)CSC[C@@H](C(=O)N[C@H](C(N)=O)[C@@H](C)O)NC(=O)[C@H](CCCCN)NC(=O)[C@H](CCCCN)NC(=O)[C@H](CCCCN)NC(=O)[C@H](Cc2ccc(O)cc2)NC(=O)[C@H](CC(N)=O)NC(=O)[C@H](CC(C)C)NC1=O | AsPC-1 (KRAS G12D) | ERK phosphorylation, Western blot, item: p-ERK |  | 48 h |  | lowest effective concentration | ≤ 10 µM |
| CCc1c(C)c2ccc(OC(C)C)c(C)c2oc1=O | PC-3 | cell growth or viability, MTT |  | 62.5 µg/mL |  | viability | 14.5% |
| CN1CCCNC(=O)c2cccc(c2)C(=O)NCCCN(C)CCCNc2cccc3c2C(=O)c2cccc(c2C3=O)NCCC1 | SAS | RNA-Seq, item: PEX6 mRNA |  | 1 µM, 6 h | reference: untreated cells | log2 fold change | 0.756 |
| Cc1cc(NC2CCN(C)CC2)ccc1-c1cc2c(N3CCC[C@H](C(=O)N[C@H](C)c4ccccc4)C3)ncnc2[nH]1 | KARPAS-299 | cell growth or viability, MTT |  | 0.2 µg/mL, 72 h |  | inhibition | 68.8% |
| CCN(C(=O)c1cc(F)ccc1Oc1nncnc1N1CCC2(C1)CN([C@H](CCCN(C)CCOC)C(C)C)C2)C(C)C | Panc1005 | cell growth or viability |  | 72 h |  | GI50 | > 10000 nM |
| CC[C@H]1CN([C@@H](CC)c2ccc(C(F)(F)F)cc2)[C@H](CC)CN1c1nc(=O)n(C)c2ccc(C#N)nc12 | human CD4+ T cells | protein phosphorylation, phosphoproteomics, item: CACTIN Ser139 phosphorylation |  | 1 h, stimulation 60 min |  | EC50 | 6.02 nM |
| CN1CCN(C(=O)c2ccc(-c3cc4c(N5CCC[C@H](C(=O)NCc6ccc(OC(F)(F)F)cc6)C5)ncnc4[nH]3)cc2)CC1 | KARPAS-299 | cell growth or viability, MTT |  | 0.0016 µg/mL, 72 h |  | inhibition | 17% |

| Compound | cell line | test | test system | conditions | how to read | endpoint | value |
| --- | --- | --- | --- | --- | --- | --- | --- |
| COC(=O)c1cc(NC2=NC(=O)C(=Cc3ccc(N(C)C)cc3)S2)ccc1OC(C)=O | MCF7 | item: RNF168 mRNA |  | 0.81 µM (IC50), 24 h | reference: DMSO | fold change | 0.26 |
| C=CC(=O)N1[C@H](c2ccc3c(c2)OCO3)c2[nH]c3ccccc3c2C[C@@H]1C(=O)NC1CC1 | rat DRG neurons |  |  | 30 µM, 48 h, with: vincristine 40 nM |  | mean neuron degeneration | 20.6% |
| COc1cccc(OC)c1-c1cc(C(=O)NC2(C(=O)O)C3CC4CC(C3)CC2C4)nn1-c1ccc(C(=O)N(C)CCOCCOCCN(C)C(=O)[C@H](CCCCNC(=O)[C@H](CC(C)C)NC(=O)C2OC2C(=O)O)NC(=O)CN2CCN(CC(=O)[O-])CCN(CC(=O)[O-])CCN(CC(=O)[O-])CC2)cc1C(C)C.[177Lu+3] (mixture of isomers) | HT-29 |  |  | concentration not given, 60 min | reference: added activity | surface-bound fraction | 0.66 ± 0.04% |
| CO[C@@H]1[C@@H](OC(N)=O)[C@@H](O)[C@H](Oc2ccc3c(O)c(NC(=O)c4ccc(O)c(CC=C(C)C)c4)c(=O)oc3c2C)OC1(C)C | HCT-116 parental |  |  | 75 µM, replicate 2 |  | colony count | 18.5 |
| Cn1ncc2cc(-c3cncc(Cl)c3N3CCC4(CCNC4=O)CC3)ccc21 | LS174T | gene expression, microarray, item: ARRDC3 mRNA |  | concentration not given, 24 h | reference: untreated cells | log2 fold change | 2.3 |
| COc1cc(N2CCN(C(=O)C3CCCN3)CC2)ccc1Nc1ncc(Cl)c(Nc2ccccc2P(C)(C)=O)n1 (stereo not drawn) | Ba/F3 EML4-ALK | flow cytometry |  | concentration not given, 24 h |  | early apoptotic cells | 7.84% and 7.57% and 7.52% |
| COC(=O)[C@@]1(C)C=C(C(=O)Nc2cccc(C(=O)Nc3ccc(Nc4nccc(-c5cccnc5)n4)c(C)c3)c2)C(=O)CC1 | HEK293 AP1 reporter cells | AP-1 reporter gene, inhibitor |  | 3 µM, 6 h, unit not given, with: PMA | reference: PMA alone | reporter activity | 0.179 and 0.188 |
| CSC(=S)N/N=C(\C)c1ccc(Nc2nnc(-c3ccc(Cl)cc3)c3ccccc23)cc1 | HepG2 | cell growth or viability, MTT |  | 0.312 µM, 24 h |  | viability | 17.6% |
| COc1ccccc1-c1ccncc1C(=O)Nc1ccc(OCc2ccc(Cl)cc2)nn1 | DLD-1 BRCA2 wild-type parental | colony formation |  | 40 µM | reference: untreated control | colony survival | 1.41% |
| C=C1C(=O)OC2C1CCC(C)(O)C13C=CC(C)(C21)C1(C3)C(=O)OC2C3C(C)C(=O)CC3C(=C)CC(OC(C)=O)C21 (stereo not drawn) | AML12 | MitoSOX flow cytometry |  | concentration not given, with: palmitate/oleate |  | mitochondrial ROS | decreased |
| CC(C)c1ccc(N(C)c2ccc3c(c2)OCC[C@H]3CNc2cnccc2C(=O)O)cc1 | NCI-H1734 | cell growth or viability, ATP luminescence |  | 7 days |  | IC50 | ≥ 10000 nM |
| CCCCCCC(=O)[O][Pt]([NH2])([NH2])([Cl])([Cl])[O]C(=O)CCC(C)C1CCC2C3CCC4CC(O)CCC4(C)C3CCC12C (stereo not drawn) | PC-3 | Western blot |  | 1 to 2 µM, 48 h, with: cisplatin 2 µM |  | Bax protein level | increased |
| COc1ccccc1-c1ccncc1C(=O)Nc1nnc(OCc2ccc(Cl)cc2)s1 | U2OS EJ2-GFP | EJ2-GFP reporter, GFP+/dsRed+ ratio |  | 10 µM, with: I-SceI transfection | reference: DMSO | change in MMEJ frequency | 13.5% and 6.7% |
| CCN(CC)CC(=O)Nc1cccc(-n2cc(-c3ccc4ccc(-c5cn(-c6cccc(NC(=O)CN(CC)CC)c6)nn5)cc4c3)nn2)c1 | RCC4 | PCR angiogenesis array, item: KDR |  | 5 x IC50, 2 h, normoxia | reference: untreated | fold regulation | 1.02 |
| [BH3-][P+]1(c2ccccc2)CCCCC1 | PC-3 | ELISA |  | concentration not given, at IC50 | reference: untreated | IL-6 reduction | 47.6% |
| CNS(=O)(=O)Nc1nccc(Cc2c(C)c3ccc(Oc4ncccc4F)cc3oc2=O)c1F | DBTRG-05MG | cell viability |  | 7 days |  | IC50 | 4.6 nM |
| CCCCN1C(=O)c2cccc3c(NCCCCCN4CCOCC4)ccc(c23)C1=O | BHK-21 | confocal microscopy, item: lysosome colocalisation |  | 0.2 µM, with: 0.3 µM LysoTracker Deep Red |  | Pearson's correlation coefficient | 0.87 ± 0.04 |
| CCCC(=O)[O][Pt]([Cl])([Cl])[O]C(=O)CCC.N.N | A549/DDP cisplatin-resistant |  |  | with: survivin siRNA transfection | reference: non-transfected over transfected | IC50 fold reduction | 1.3 fold |

Some of these lines once more:
| Compound | cell line | test | test system | conditions | how to read | endpoint | value |
| --- | --- | --- | --- | --- | --- | --- | --- |
| CCc1c(C)c2ccc(OC(C)C)c(C)c2oc1=O | PC-3 | cell growth or viability, MTT |  | 62.5 µg/mL |  | viability | 14.5% |
| CN1CCN(C(=O)c2ccc(-c3cc4c(N5CCC[C@H](C(=O)NCc6ccc(OC(F)(F)F)cc6)C5)ncnc4[nH]3)cc2)CC1 | KARPAS-299 | cell growth or viability, MTT |  | 0.0016 µg/mL, 72 h |  | inhibition | 17% |
| CCN(CC)CC(=O)Nc1cccc(-n2cc(-c3ccc4ccc(-c5cn(-c6cccc(NC(=O)CN(CC)CC)c6)nn5)cc4c3)nn2)c1 | RCC4 | PCR angiogenesis array, item: KDR |  | 5 x IC50, 2 h, normoxia | reference: untreated | fold regulation | 1.02 |
